Assay results collected from several papers.
Each line is one published result; not all experiments were run side by side. Values joined by “and” are separate records of one study, mostly repeats; a detail may differ.
U2AF2: U2AF2 148-342 (Homo sapiens, UniProt P26368)
Sequence of UniProt P26368 (whole entry, looked up): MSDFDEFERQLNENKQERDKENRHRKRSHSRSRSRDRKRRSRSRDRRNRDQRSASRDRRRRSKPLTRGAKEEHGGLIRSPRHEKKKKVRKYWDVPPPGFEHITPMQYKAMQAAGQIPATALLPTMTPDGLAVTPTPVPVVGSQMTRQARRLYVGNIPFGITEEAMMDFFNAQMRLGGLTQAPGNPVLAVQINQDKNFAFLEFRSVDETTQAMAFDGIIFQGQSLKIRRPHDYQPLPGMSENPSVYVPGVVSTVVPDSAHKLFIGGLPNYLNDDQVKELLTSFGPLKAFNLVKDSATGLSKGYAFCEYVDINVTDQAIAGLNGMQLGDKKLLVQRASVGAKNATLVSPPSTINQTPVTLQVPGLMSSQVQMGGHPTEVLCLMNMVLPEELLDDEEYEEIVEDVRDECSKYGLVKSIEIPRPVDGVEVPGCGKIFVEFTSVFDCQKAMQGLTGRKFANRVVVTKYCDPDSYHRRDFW
B1: dlg1 1-97 (Drosophila melanogaster, UniProt P31007); sequence looked up; chain MPVKKQEAHRALELLEDYHARLSEPQDRALRIAIERVIRIFKSRLFQALLDIQEFYELTLLDDSKSIQQKTAETLQIATKWEKDGQAVKIADFIKSS
B2: TGFBI 45-632 (Homo sapiens, UniProt Q15582); sequence looked up; chain GPNVCAVQKVIGTNRKYFTNCKQWYQRKICGKSTVISYECCPGYEKVPGEKGCPAALPLSNLYETLGVVGSTTTQLYTDRTEKLRPEMEGPGSFTIFAPSNEAWASLPAEVLDSLVSNVNIELLNALRYHMVGRRVLTDELKHGMTLTSMYQNSNIQIHHYPNGIVTVNCARLLKADHHATNGVVHLIDKVISTITNNIQQIIEIEDTFETLRAAVAASGLNTMLEGNGQYTLLAPTNEAFEKIPSETLNRILGDPEALRDLLNNHILKSAMCAEAIVAGLSVETLEGTTLEVGCSGDMLTINGKAIISNKDILATNGVIHYIDELLIPDSAKTLFELAAESDVSTAIDLFRQAGLGNHLSGSERLTLLAPLNSVFKDGTPPIDAHTRNLLRNHIIKDQLASKYLYHGQTLETLGGKKLRVFVYRNSLCIENSCIAAHDKRGRYGTLFTMDRVLTPPMGTVMDVLKGDNRFSMLVAAIQSAGLTETLNREGVYTVFAPTNEAFRALPPRERSRLLGDAKELANILKYHIGDEILVSGGIGALVRLKSLQGDKLEVSLKNNVVSVNKEPVAEPDIMATNGVVHVITNVL
B3: INHBA mature (Homo sapiens, UniProt P08476); sequence looked up; chain GLECDGKVNICCKKQFFVSFKDIGWNDWIIAPSGYHANYCEGECPSHIAGTSGSSLSFHSTVINHYRMRGHSPFANLKSCCVPTKLRPMSMLYYDDGQNIIKKDIQNMIVEECGCS
B4: BAK1 22-186 (Homo sapiens, UniProt Q16611); sequence looked up; chain ASEEQVAQDTEEVFRSYVFYRHQQEQEAEGVAAPADPEMVTLPLQPSSTMGQVGRQLAIIGDDINRRYDSEFQTMLQHLQPTAENAYEYFTKIATSLFESGINWGRVVALLGFGYRLALHVYQHGLTGFLGQVTRFVVDFMLHHCIARWIAQRGGWVAALNLGNG
B5: SERPINA1 25-314 C232S (Homo sapiens, UniProt P01009); sequence looked up; chain EDPQGDAAQKTDTSHHDQDHPTFNKITPNLAEFAFSLYRQLAHQSNSTNIFFSPVSIATAFAMLSLGTKADTHDEILEGLNFNLTEIPEAQIHEGFQELLRTLNQPDSQLQLTTGNGLFLSEGLKLVDKFLEDVKKLYHSEAFTVNFGDTEEAKKQINDYVEKGTQGKIVDLVKELDRDTVFALVNYIFFKGKWERPFEVKDTEEEDFHVDQVTTVKVPMMKRLGMFNIQHSKKLSSWVLLMKYLGNATAIFFLPDEGKLQHLENELTHDIITKFLENEDRRSASLHLPK
B6: gapA 2-331 (Escherichia coli, UniProt P0A9B2); chain TIKVGINGFGRIGRIVFRAAQKRSDIEIVAINDLLDADYMAYMLKYDSTHGRFDGTVEVKDGHLIVNGKKIRVTAERDPANLKWDEVGVDVVAEATGLFLTDETARKHITAGAKKVVMTGPSKDNTPMFVKGANFDKYAGQDIVSNASCTTNCLAPLAKVINDNFGIIEGLMTTVHATTATQKTVDGPSHKDWRGGRGASQNIIPSSTGAAKAVGKVLPELNGKLTGMAFRVPTPNVSVVDLTVRLEKAATYEQIKAAVKAAAEGEMKGVLGYTEDDVVSTDFNGEVCTSVFDAKAGIALNDNFVKLVSWYDNETGYSNKVLDLIAHISK
B7: Nefl 1-415 (Mus musculus, UniProt P08551); sequence looked up; chain MSSFGYDPYFSTSYKRRYVETPRVHISSVRSGYSTARSAYSSYSAPVSSSLSVRRSYSSSSGSLMPSLENLDLSQVAAISNDLKSIRTQEKAQLQDLNDRFASFIERVHELEQQNKVLEAELLVLRQKHSEPSRFRALYEQEIRDLRLAAEDATNEKQALQGEREGLEETLRNLQARYEEEVLSREDAEGRLMEARKGADEAALARAELEKRIDSLMDEIAFLKKVHEEEIAELQAQIQYAQISVEMDVSSKPDLSAALKDIRAQYEKLAAKNMQNAEEWFKSRFTVLTESAAKNTDAVRAAKDEVSESRRLLKAKTLEIEACRGMNEALEKQLQELEDKQNADISAMQDTINKLENELRSTKSEMARYLKEYQDLLNVKMALDIEIAAYRKLLEGEETRLSFTSVGSITSGYSQ
B8: ACAT1 35-427 Y219F (Homo sapiens, UniProt P24752); pY407; chain SKPTLKEVVIVSATRTPIGSFLGSLSLLPATKLGSIAIQGAIEKAGIPKEEVKEAYMGNVLQGGEGQAPTRQAVLGAGLPISTPCTTINKVCASGMKAIMMASQSLMCGHQDVMVAGGMESMSNVPYVMNRGSTPYGGVKLEDLIVKDGLTDVYNKIHMGSCAENTAKKLNIARNEQDAYAINSFTRSKAAWEAGKFGNEVIPVTVTVKGQPDVVVKEDEEYKRVDFSKVPKLKTVFQKENGTVTAANASTLNDGAAALVLMTADAAKRLNVTPLARIVAFADAAVEPIDFPIAPVYAASMVLKDVGLKKEDIAMWEVNEAFSLVVLANIKMLEIDPQKVNINGGAVSLGHPIGMSGARIVGHLTHALKQGEYGLASICNGGGGASAMLIQKL
B9: RB1CC1 1286-1594 (Homo sapiens, UniProt Q8TDY2); chain SLVAELQEKLQEEKAKFLEQLEEQEKRKNEEMQNVRTSLIAEQQTNFNTVLTREKMRKENIINDLSDKLKSTMQQQERDKDLIESLSEDRARLLEEKKKLEEEVSKLRSSSFVPSPYVATAPELYGACAPELPGESDRSAVETADEGRVDSAMETSMMSVQENIHMLSEEKQRIMLLERTLQLKEEENKRLNQRLMSQSMSSVSSRHSEKIAIRDFQVGDLVLIILDERHDNYVLFTVSPTLYFLHSESLPALDLKPGEGASGASRRPWVLGKVMEKEYCQAKKAQNRFKVPLGTKFYRVKAVSWNKKV
B10: PF1070 1-140 M69A/L70A/L73A/E74A (Pyrococcus furiosus, UniProt Q8U1Y4); sequence looked up; chain MPSSSKSDFSFSTLIIPQHYLRAILKVVSSSSVEVCGFLFGKENRVLKVRFIRNRLNSPVEFEMDPEEAAKAAAEAEQENLEVVGIFHSHIACPPIPSGKDLEGMKRWPVIWLIVNEKGEYKAWILSEKNKISEVKIVVE
B11: lacI 1-360 N125A (Escherichia coli, UniProt P03023); chain MKPVTLYDVAEYAGVSYQTVSRVVNQASHVSAKTREKVEAAMAELNYIPNRVAQQLAGKQSLLIGVATSSLALHAPSQIVAAIKSRADQLGASVVVSMVERSGVEACKAAVHNLLAQRVSGLIIAYPLDDQDAIAVEAACTNVPALFLDVSDQTPINSIIFSHEDGTRLGVEHLVALGHQQIALLAGPLSSVSARLRLAGWHKYLTRNQIQPIAEREGDWSAMSGFQQTMQMLNEGIVPTAMLVANDQMALGAMRAITESGLRVGADISVVGYDDTEDSSCYIPPLTTIKQDFRLLGQTSVDRLLQLSQGQAVKGNQLLPVSLVKRKTTLAPNTQTASPRALADSLMQLARQVSRLESGQ
B12: PHYA I748P (Arabidopsis thaliana, UniProt P14712); phytochromobilin thioether linked; chain GMSGSRPTQSSEGSRRSRHSARIIAQTTVDAKLHADFEESGSSFDYSTSVRVTGPVVENQPPRSDKVTTTYLHHIQKGKLIQPFGCLLALDEKTFKVIAYSENASELLTMASHAVPSVGEHPVLGIGTDIRSLFTAPSASALQKALGFGDVSLLNPILVHCRTSAKPFYAIIHRVTGSIIIDFEPVKPYEVPMTAAGALQSYKLAAKAITRLQSLPSGSMERLCDTMVQEVFELTGYDRVMAYKFHEDDHGEVVSEVTKPGLEPYLGLHYPATDIPQAARFLFMKNKVRMIVDCNAKHARVLQDEKLSFDLTLCGSTLRAPHSCHLQYMANMDSIASLVMAVVVNEEDGEGDAPDATTQPQKRKRLWGLVVCHNTTPRFVPFPLRYACEFLAQVFAIHVNKEVELDNQMVEKNILRTQTLLCDMLMRDAPLGIVSQSPNIMDLVKCDGAALLYKDKIWKLGTTPSEFHLQEIASWLCEYHMDSTGLSTDSLHDAGFPRALSLGDSVCGMAAVRISSKDMIFWFRSHTAGEVRWGGAKHDPDDRDDARRMHPRSSFKAFLEVVKTRSLPWKDYEMDAIHSLQLILRNAFKDSETTDVNTKVIYSKLNDLKIDGIQELEAVTSEMVRLIETATVPILAVDSDGLVNGWNTKIAELTGLSVDEAIGKHFLTLVEDSSVEIVKRMLENALEGTEEQNVQFEIKTHLSRADAGPISLVVNACASRDLHENVVGVCFVAHDLTGQKTVMDKFTRPEGDYKAIIQNPNPLIPPIFGTDEFGWCTEWNPAMSKLTGLKREEVIDKMLLGEVFGTQKSCCRLKNQEAFVNLGIVLNNAVTSQDPEKVSFAFFTRGGKYVECLLCVSKKLDREGVVTGVFCFLQLASHELQQALHVQRLAERTAVKRLKALAYIKRQIRNPLSGIMFTRKMIEGTELGPEQRRILQTSALCQKQLSKILDDSDLESIIEGCLDLEMKEFTLNEVLTASTSQVMMKSNGKSVRITNETGEEVMSDTLYGDSIRLQQVLADFMLMAVNFTPSGGQLTVSASLRKDQLGRSVHLANLEIRLTHTGAGIPEFLLNQMFGTEEDVSEEGLSLMVSRKLVKLMNGDVQYLRQAGKSSFIITAELAAANK
Sequence of UniProt P04176 (whole entry, looked up): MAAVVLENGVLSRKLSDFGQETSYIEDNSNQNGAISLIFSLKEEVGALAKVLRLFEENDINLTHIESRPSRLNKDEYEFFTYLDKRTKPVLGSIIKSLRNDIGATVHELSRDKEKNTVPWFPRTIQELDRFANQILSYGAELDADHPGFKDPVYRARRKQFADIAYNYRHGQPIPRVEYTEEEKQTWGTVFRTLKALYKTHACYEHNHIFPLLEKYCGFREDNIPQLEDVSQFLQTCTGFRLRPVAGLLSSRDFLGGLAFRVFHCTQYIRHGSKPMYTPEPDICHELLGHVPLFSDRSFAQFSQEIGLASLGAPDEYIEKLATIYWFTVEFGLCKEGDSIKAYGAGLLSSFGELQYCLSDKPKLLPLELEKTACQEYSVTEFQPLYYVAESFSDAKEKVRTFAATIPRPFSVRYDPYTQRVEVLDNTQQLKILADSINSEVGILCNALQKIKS

`B1 (dlg1 1-97)`: “subunits per oligomer” 2 (itself; SEC).
Under “subunits per oligomer”, `VSRVSREELEDRFLRMHDENILLKQHARKQEDKIKRMATKLIRLVNDKKRYERVGG (RPGRIP1L CC1 42-97 L57M (Mus musculus, UniProt Q8CG73); sequence looked up)` is recorded as 2 (itself; SEC-MALS).
`B2 (TGFBI 45-632)` — result for “subunits per oligomer”: 2 (itself; SEC).
Under “subunits per oligomer”, `B3 (INHBA mature)` is recorded as 2 (itself; western blot).
For `B4 (BAK1 22-186)`, “subunits per oligomer” read 2 (itself; SEC-MALS).
`B5 (SERPINA1 25-314 C232S)`: “subunits per oligomer” 2 (itself; AUC; velocity sedimentation).
`B6 (gapA 2-331)`: “subunits per oligomer” 4 (itself; SEC).
`B7 (Nefl 1-415)`: “subunits per oligomer” 2 and 4 (itself; AUC, electron microscopy).
`CUUAAUUCU (ssRNA)` has a Kd of 3.15 µM (U2AF2; sequencing of bound RNA; RNA; motif only).
`B8 (ACAT1 35-427 Y219F)` — result for “subunits per oligomer”: 4 (itself; native gel; Y219F mutant).
`B9 (RB1CC1 1286-1594)`: “subunits per oligomer” 2 (itself; AUC (sedimentation velocity)).
For `B10`, “subunits per oligomer” read 2 (itself; SEC).
For `Pah (Rattus norvegicus, UniProt P04176)`, “subunits per oligomer” read 4 (itself; SEC).
Under “subunits per oligomer”, `FER kinase domain , unphosphorylated (Arabidopsis thaliana) (sequence not shown)` is recorded as 2 (itself; AUC; unphosphorylated).
`B11 (lacI 1-360 N125A)` — result for “subunits per oligomer”: 4 (itself; SEC).
`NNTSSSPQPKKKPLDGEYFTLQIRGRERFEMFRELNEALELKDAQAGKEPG (TP53 310-360 (Homo sapiens, UniProt P04637); sequence looked up)` — result for “subunits per oligomer”: 4 (itself; SEC).
`NEFL (Homo sapiens, UniProt P07196)`: “subunits per oligomer” 4 (itself; native MS).
For `CUAAUUUUU (ssRNA)`, the Kd was 17 µM (U2AF2; sequencing of bound RNA; RNA; motif only).
`B12 (PHYA I748P)` — result for “subunits per oligomer”: 2 (itself; SEC).

A few entries again:
For `B10`, “subunits per oligomer” read 2 (itself; SEC).
